# Results gathered from unrelated publications.
# Compare with care: the assays were run in different laboratories. Values joined by “and” are separate records of one study, mostly repeats; a detail may differ. Numbers after ± are the reported error.
# Chain of UniProt P50613 (whole entry, looked up): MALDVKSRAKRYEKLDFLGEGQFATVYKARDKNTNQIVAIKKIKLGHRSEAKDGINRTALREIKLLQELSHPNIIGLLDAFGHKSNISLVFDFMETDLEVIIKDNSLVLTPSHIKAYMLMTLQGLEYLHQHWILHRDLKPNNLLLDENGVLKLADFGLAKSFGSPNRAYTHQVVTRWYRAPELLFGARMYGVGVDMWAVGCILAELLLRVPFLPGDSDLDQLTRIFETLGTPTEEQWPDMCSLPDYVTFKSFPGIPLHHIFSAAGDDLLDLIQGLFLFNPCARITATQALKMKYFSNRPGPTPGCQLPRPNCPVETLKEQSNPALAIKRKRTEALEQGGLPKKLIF
# Chain of UniProt P24666 (whole entry, looked up): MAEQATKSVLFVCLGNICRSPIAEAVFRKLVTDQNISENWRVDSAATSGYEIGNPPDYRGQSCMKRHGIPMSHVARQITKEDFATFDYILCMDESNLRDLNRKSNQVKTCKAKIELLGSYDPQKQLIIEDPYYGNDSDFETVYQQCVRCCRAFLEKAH
SMILES,target or system,test,test system,conditions,how to read,measurement,value
CCCC(CCC)NC(=O)c1ccc2c(c1)OCO2,,,"Swiss albino CD-1 mice, male, bone marrow","intraperitoneal, 175 mg/kg, 36 h",,micronucleated PCEs,0.1%
CN1CC[C@@H](c2c(O)cc(O)c3c(=O)cc(-c4ccc(C(F)(F)F)cc4Cl)oc23)[C@@H]1CO,,item: Hypertension,B-cell malignancies,"oral, 150 mg, intermittent dosing",,patients with adverse event,33.3%
COc1cc2c(Oc3ccc4[nH]c(C)cc4c3F)ccnc2cc1OCC1(N)CC1,,item: grade 1 or 2 gingival bleeding,paediatric high-risk refractory sarcoma,whole group,,incidence of adverse event,11.8%
COc1ccc(-c2c(-c3ccc(C#N)c(F)c3)nc(N3CCC(N)CC3)n(C)c2=O)cc1F,,item: Cystitis,human patients,"oral, dose not given, dose escalation, NG",,serious adverse event incidence,2%
COc1cccc(Oc2ccccc2NC(=O)CNC(=O)c2cccc3ccccc23)c1,,,"esterase-deficient SCID mice, male","oral, 40 mg/kg/day, 14 days, toxicity study",,serum calcium,10.3 mg/dL and 9.8 mg/dL and 8.7 mg/dL
O=C(O)CCCOc1ccc(F)cc1-c1cc(-c2ccccc2C(F)(F)F)n(-c2ccccc2)n1,,item: adrenals,"Crl:CD(SD) rats, male","iv, 25 µg/kg, 14 days",,relative organ weight,16.8 ± 3 mg%
O=C1c2c(O)c(=O)ccn2N([C@@H]2c3ccccc3SCc3c2ccc(F)c3F)[C@@H]2COCCN12,,,BALB/c mouse,"subcutaneous, 0.125 mg/kg q12h",,trough concentration,0.394 ng/mL
C[C@@H](NC(=O)N1C(=O)[C@H](Cc2ccnc(N)c2)[C@H]1C(=O)O)C1CCCCC1,,,healthy adult Chinese volunteers,"continuous intravenous infusion, 0.3 mg/kg/h, 5-day infusion, CTCAE 5.0 grading",,incidence of AEs leading to discontinuation,0%
COc1ccc([C@@H](O)c2cc(-c3ncnc4cc(N5CCOCC5)ccc34)c(F)cc2Cl)nn1,,,"patients, advanced solid tumours","oral, 200 mg twice daily, treatment-emergent, together with: avelumab",relative to: patients,stomatitis incidence,10%
CCC[C@@](N)(CO)CCc1ccc(OCCCCCC(C)C)cc1,,,dog,"oral, 5 mg/kg",,Cmax,352 nM
CC[C@H](C)[C@H](NC(=O)[C@H](Cc1ccccc1)NC(=O)[C@H](CCC(=O)O)NC(=O)[C@H](CCCNC(=N)N)NC(=O)[C@H](C)NC(=O)[C@H](C)NC(=O)[C@H](CCC(N)=O)NC(=O)[C@H](CCC(=O)O)NC(=O)[C@H](CCC(=O)O)NC(=O)[C@H](CC(C)C)NC(=O)[C@H](Cc1ccc(O)cc1)NC(=O)[C@H](CO)NC(=O)[C@H](CO)NC(=O)[C@@H](NC(=O)[C@H](CC(=O)O)NC(=O)[C@H](CO)NC(=O)[C@@H](NC(=O)[C@H](Cc1ccccc1)NC(=O)[C@@H](NC(=O)CNC(=O)[C@H](CCC(=O)O)NC(=O)[C@H](C)NC(=O)CCc1cnc[nH]1)[C@@H](C)O)[C@@H](C)O)C(C)C)C(=O)N[C@@H](C)C(=O)N[C@@H](Cc1c[nH]c2ccccc12)C(=O)N[C@@H](CC(C)C)C(=O)N[C@H](C(=O)N[C@@H](CCCNC(=N)N)C(=O)NCC(=O)N[C@@H](CCCNC(=N)N)C(=O)N[C@@H](CCCCNC(=O)COCCOCCNC(=O)COCCOCCNC(=O)CC[C@H](NC(=O)CCCCCCCCCCCCCCCCC(=O)O)C(=O)O)C(=O)NCC(=O)NCC(=O)N[C@@H](CO)C(=O)N[C@@H](CCSC)C(=O)N[C@H](C(=O)N[C@@H](CCCCNc1c(NCCCCCN(O)C(=O)CCC(=O)NCCCCCN(O)C(=O)CCC(=O)NCCCCCN(O)C(C)=O)c(=O)c1=O)C(=O)O)C(C)C)C(C)C [zirconium-89 labelled],,ex vivo gamma counting,"male Sprague-Dawley rat, blood","intravenous, 1 nmol, 72 h, mean of 3 animals",,tissue uptake,0.029 %ID/g
CC(C)n1c(C2CCNCC2)nc2c([N+](=O)[O-])c(Br)c(Br)cc21,,item: Asthenia,AML patients,125 mg,,adverse events causing discontinuation,2%
O=c1ccc2ncc(=O)n3c2n1C[C@H]3CN1CCC(NCc2cc3c(cn2)OCCC3)CC1,,,healthy human volunteers,"oral, dose not given, arithmetic mean, together with: rifampicin",,renal clearance,285 mL/min
CC(=O)c1c(C)c2cnc(Nc3ccc(C4CCN(CCS(C)(=O)=O)CC4)cn3)nc2n(C2CCCC2)c1=O,,,"human, plasma","oral, 25 mg, day 1 single dose",,MRT,7.67 h
CCc1ccc(CC/C=C/c2ccc3c(c2)C(=O)CC3)cc1,,,"Sprague-Dawley rat, female","oral, 30 mg/kg/day, 14 days",,Hemoglobin,147 g/L
Cn1c(-c2ccc(C(N)=O)cc2F)nnc1C(C)(C)Oc1c(F)cc(Cl)cc1F,,,human,"oral, 3 mg, single ascending dose",,gastrointestinal disorder TEAE,0%
COc1ccc([C@@H]2CC(=O)c3c(O)cc(O)cc3O2)cc1O,,,"Sprague-Dawley rat, male, lean, faeces","oral, 100 mg/kg neohesperidin, 36-48 h",,faecal excretion,59.9 ± 44.6 ng
Cc1cc(C)c(CNC(=O)c2cc(Cl)c3c(c2C)O[C@@](C)([C@H]2CC[C@H](N(C)C)CC2)O3)c(=O)[nH]1,,,"human, relapsed/refractory NHL","concentration not given, treatment-related TEAEs, grade 5",,Rash incidence,0%
C[C@H]1CN(c2n[nH]c3nc(N[C@H]4CC[C@H](NS(=O)(=O)CCC(F)(F)F)CC4)ncc23)CCO1,"CDK7 (Homo sapiens, UniProt P50613)",Kinobeads competition,"HEK293, K562, placenta lysate","0.8 µM, unit not given",relative to: vehicle,remaining binding,0.83
O=C1Nc2cc3[nH]nc(-c4ccncc4)c3cc2CN1Cc1ccccc1,,CTCAE v4.03,advanced solid tumour patients,"intravenous, 1.8 mg/kg, schedules 1/2",,patients with diarrhoea,0%
C=CC(=O)N1CC[C@H](n2nc(C#Cc3cc(OC)cc(OC)c3)c3c(N)ncnc32)C1,,,"human patients, all","oral, dose not given, QD regimen, adverse drug reaction",,"ALT increased, any grade",18.6%
O=C(Nc1ccccc1)C1CCN(C(=O)Oc2cccnc2)CC1,,,healthy women,"oral, 20 mg, 7 days",,adverse event Anxiety,0%
COc1ncccc1-c1cnn2ccc(N3CCN(C(=O)OC(C)C)CC3)nc12,,,"mouse, SNL model, plasma","oral, 60 mg/kg, 30 min",,free drug concentration,340 nM
N#C/N=C1\SCCN1Cc1ccc(Cl)nc1,,,soil,"0 days, nominal 1.1",,recovery,54%
CC(C)(C)N1CCC(c2ccccc2)(c2ccccc2)CC1,Vero-E6,CellTiter-Glo ATP,,"72 h, first round 5-point","relative to: DMSO 0%, hyamine -100%, more negative, more toxic",maximum response,-4.25%
C[C@@H]1OC(=O)NN=C1c1ccc(-c2ccc(F)cc2)c(C(F)(F)F)c1,,"phase I trial, item: Ascites all grades",human patients,5 mg loading then 0.25 mg daily,,patients with adverse event,0%
COc1cc(Nc2ncc(F)c(Nc3ccc4c(n3)NC(=O)C(C)(C)O4)n2)cc(OC)c1OC,"Low molecular weight phosphotyrosine protein phosphatase, isoform A (ACP1, Homo sapiens, UniProt P24666)",,,LMPTP-A,,IC50,> 10 µM
CC1(C)[C@H](C=C(Cl)Cl)[C@H]1C(=O)OCc1cccc(Oc2ccccc2)c1,,item: CYP1A2,"human, age 1 year, recombinant human CYP1A2",0.1 µM,,enzyme contribution to clearance,0.03%
COS(C)(=O)=O,,,"female Hsd:ICR (CD-1) mouse, bone marrow","oral, 40 mg/kg/day, positive control",,micronucleated PCE per 1000 PCE,12.1
[O-][S+]1CCc2nc(N3CCC(c4ncc(Cl)cn4)CC3)nc(NC3(CO)CCC3)c21 (stereo not shown),,"phase I trial, item: anal incontinence",idiopathic pulmonary fibrosis patients,18 mg twice daily,,subjects with adverse events,10%
C=CCNc1c(O)cc2c(O)c1C[C@@H](C)C[C@H](OC)[C@H](O)[C@@H](C)/C=C(\C)[C@H](OC(N)=O)[C@@H](OC)/C=C\C=C(/C)C(=O)N2,,,"unresectable or metastatic STS, GIST, other","intravenous, 300 mg/m^2",,patients with arthralgia TEAE,33%
CCN1CC2(CCN(CCc3cc(F)ccc3F)CC2)O[C@H](C)C1=O,,,"ferret, plasma","intraperitoneal, 1 mg/kg",,tmax,0.2 ± 0.1 h
N[C@@H]1c2ccccc2OC12CCN(c1cnc3c(N4CCCc5ncccc54)n[nH]c3n1)CC2,,,advanced metastatic solid tumour patients,"oral, 40 mg once daily",,TEAE leading to interruption,50%
COc1cccc(CNC(=O)C2CCN(Cc3cc4ccccc4n3Cc3ccccc3)CC2)c1OC,Vero-E6,CellTiter-Glo ATP,,"72 h, retest 8-point duplicates","relative to: DMSO 0%, hyamine -100%, more negative, more toxic",maximum response,-4.81%
CC(C)C[C@H](NC(=O)[C@H](CCCCN)NC(=O)OCC1c2ccccc2-c2ccccc21)C(=O)N[C@H](C(=O)N[C@@H](Cc1ccccc1)C(=O)N[C@@H](Cc1ccccc1)C(=O)N[C@@H](CCCCN)C(=O)NCC(=O)N[C@@H](Cc1ccccc1)C(=O)N[C@@H](C)C(=O)N[C@@H](Cc1c[nH]c2ccccc12)C(=O)N[C@@H](CC(N)=O)C(=O)N[C@H](C(=O)N[C@H]1CSSC[C@@H](C(=O)N[C@@H](Cc2c[nH]cn2)C(=O)N[C@@H](CCCNC(=N)N)C(=O)N[C@@H](CCCNC(=N)N)C(=O)N[C@@H](C)C(=O)N[C@@H](CC(N)=O)C(N)=O)NC(=O)[C@H](C(C)C)NC(=O)[C@H](CCCNC(=N)N)NC(=O)[C@H](C(C)C)NC(=O)CNC(=O)[C@H](CC(N)=O)NC(=O)[C@H](CCCNC(=N)N)NC(=O)[C@H](Cc2ccc(O)cc2)NC(=O)[C@H](C(C)C)NC1=O)C(C)C)C(C)C,,,"ICR mice, blood","intraperitoneal, 5 mg/kg, day 5",,mean platelet volume,6.75 ± 0.24 fL
CC[C@H](C)[C@@H]1NC(=O)[C@@H]2CCCN2C(=O)[C@H](CC(C)C)NC(=O)[C@H](CC(C)C)NC(=O)CNC(=O)[C@@H](NC(=O)[C@@H](NC(=O)[C@H](CC(=O)O)NC(=O)CNC(=O)[C@@H](NC(=O)[C@H](C)NC(=O)CNC(=O)[C@H](CCCCN)NC(=O)[C@H](CC(C)C)NC(=O)[C@H](CC(C)C)NC(=O)[C@H](CCCCN)NC(=O)CNC(=O)[C@@H](NC(=O)[C@@H](N)CC(C)C)C(C)C)C(C)C)C(C)C)CSSC[C@@H](C(=O)O)NC1=O,,"RNA-seq, item: Pilrb1 mRNA","mouse traumatic brain injury, frontal cortex and hippocampus",dose not given,relative to: TBI plus compound vs TBI,log2 fold change,-4.31
CO[C@H]1C[C@@H]2CC[C@@H](C)[C@@](O)(O2)C(=O)C(=O)N2CCCC[C@H]2C(=O)O[C@H]([C@H](C)C[C@@H]2CC[C@@H](OC(=O)NCCOCCOCCOCCOCCOCCOCCOCCOCCC(=O)N3CCc4cc(Cn5nc(-c6ccc7oc(N)nc7c6)c6c(N)ncnc65)ccc4C3)[C@H](OC)C2)C[C@@H](O)[C@H](C)/C=C(\C)[C@@H](O)[C@@H](OC)C(=O)[C@H](C)C[C@H](C)/C=C/C=C/C=C/1C,,phase 1 dose escalation,advanced solid tumour patients,"intravenous, 8 mg weekly, grade ≥3",,deaths due to TEAEs,0%

# Some of these lines once more:
SMILES,target or system,test,test system,conditions,how to read,measurement,value
CC[C@H](C)[C@H](NC(=O)[C@H](Cc1ccccc1)NC(=O)[C@H](CCC(=O)O)NC(=O)[C@H](CCCNC(=N)N)NC(=O)[C@H](C)NC(=O)[C@H](C)NC(=O)[C@H](CCC(N)=O)NC(=O)[C@H](CCC(=O)O)NC(=O)[C@H](CCC(=O)O)NC(=O)[C@H](CC(C)C)NC(=O)[C@H](Cc1ccc(O)cc1)NC(=O)[C@H](CO)NC(=O)[C@H](CO)NC(=O)[C@@H](NC(=O)[C@H](CC(=O)O)NC(=O)[C@H](CO)NC(=O)[C@@H](NC(=O)[C@H](Cc1ccccc1)NC(=O)[C@@H](NC(=O)CNC(=O)[C@H](CCC(=O)O)NC(=O)[C@H](C)NC(=O)CCc1cnc[nH]1)[C@@H](C)O)[C@@H](C)O)C(C)C)C(=O)N[C@@H](C)C(=O)N[C@@H](Cc1c[nH]c2ccccc12)C(=O)N[C@@H](CC(C)C)C(=O)N[C@H](C(=O)N[C@@H](CCCNC(=N)N)C(=O)NCC(=O)N[C@@H](CCCNC(=N)N)C(=O)N[C@@H](CCCCNC(=O)COCCOCCNC(=O)COCCOCCNC(=O)CC[C@H](NC(=O)CCCCCCCCCCCCCCCCC(=O)O)C(=O)O)C(=O)NCC(=O)NCC(=O)N[C@@H](CO)C(=O)N[C@@H](CCSC)C(=O)N[C@H](C(=O)N[C@@H](CCCCNc1c(NCCCCCN(O)C(=O)CCC(=O)NCCCCCN(O)C(=O)CCC(=O)NCCCCCN(O)C(C)=O)c(=O)c1=O)C(=O)O)C(C)C)C(C)C [zirconium-89 labelled],,ex vivo gamma counting,"male Sprague-Dawley rat, blood","intravenous, 1 nmol, 72 h, mean of 3 animals",,tissue uptake,0.029 %ID/g
COc1ccc([C@@H]2CC(=O)c3c(O)cc(O)cc3O2)cc1O,,,"Sprague-Dawley rat, male, lean, faeces","oral, 100 mg/kg neohesperidin, 36-48 h",,faecal excretion,59.9 ± 44.6 ng
